Published values from different studies.
± gives the spread as reported.
Method: steady-state kinetics
B1: BaiA1 (Clostridium scindens, UniProt P07914); chain MKLVQDKITIITGGTRGIGFAAAKLFIENGAKVSIFGETQEEVDTALAQLKELYPEEEVLGFAPDLTSRDAVMAAVGTVAQKYGRLDVMINNAGITMNSVFSRVSEEDFKNIMDINVNGVFNGAWSAYQCMKDAKQGVIINTASVTGIYGSLSGIGYPTSKAGVIGLTHGLGREIIRKNIRVVGVAPGVVDTDMTKGLPPEILEDYLKTLPMKRMLKPEEIANVYLFLASDLASGITATTISVDGAYRP
B2: tsaM1 (Comamonas testosteroni, UniProt P94679); chain MFIRNCWYVAAWDTEIPAEGLFHRTLLNEPVLLYRDTQGRVVALENRCCHRSAPLHIGRQEGDCVRCLYHGLKFNPSGACVEIPGQEQIPPKTCIKSYPVVERNRLVWIWMGDPARANPDDIVDYFWHDSPEWRMKPGYIHYQANYKLIVDNLLDFTHLAWVHPTTLGTDSAASLKPVIERDTTGTGKLTITRWYLNDDMSNLHKGVAKFEGKADRWQIYQWSPPALLRMDTGSAPTGTGAPEGRRVPEAVQFRHTSIQTPETETTSHYWFCQARNFDLDDEALTEKIYQGVVVAFEEDRTMIEAHEKILSQVPDRPMVPIAADAGLNQGRWLLDRLLKAENGGTAP
B3: hutH (Acinetobacter baumannii, UniProt V5V8Q5); chain MELLIQPGKLTLADLRQAYLNPIKVKLDESASSAINASVACVEQIVNEGRTAYGINTGFGLLASTKIAPEDLEKLQRSLVLSHAAGVGEALDDAMVRLIILLKANSLARGFSGIRRKVIDALLALINAEVYPHIPLKGSVGASGDLAPLAHMSLVLLGESKARYKGEWLPAVEALKIAGLEPISLAAKEGLALLNGTQVSTAYALRGLFEAEDLFAAATVCGGLSVEAMLGSRAPFDARIHEVRGQRGQIDVAAAYRDLLTDSSEISRSHEECGKVQDPYSLRCQPQVMGACLTQIRQAAEVLEIEANAVSDNPLVFAEQGDVISGGNFHAEPVAMAADNLALAIAEIGSLSERRISMMMDRHMSQLPPFLVANGGVNSGFMIAQVTAAALASDNKALAHPASVDSLPTSANQEDHVSMAPNAGKRLWYMADNVRGILAVEWLGACQGLDFREGLKSSPKLEQARKILRDQVPYYSEDRFFAPDIEQASELLASGCLNELLIPKLLPSLSEV
B4: protein Y93D (Thermus thermophilus, UniProt Q5SKR5); chain MSAPKPFVIGIAGGTASGKTTLAQALARTLGERVALLPMDHYYKDLGHLPLEERLRVNYDHPDAFDLALYLEHAQALLRGLPVEMPVYDFRADTRSPRRTPVRPAPVVILEGILVLYPKELRDLMDLKVFVDADADERFIRRLKRDVLERGRSLEGVVAQYLEQVKPMHLHFVEPTKRYADVIVPRGGQNPVALEMLAAKALARLARMGAA
B5: PduO F112A (Limosilactobacillus reuteri, UniProt Q50EJ2); chain MKIYTKNGDKGQTRIIGKQILYKNDPRVAAYGEVDELNSWVGYTKSLINSHTQVLSNELEEIQQLLFDCGHDLATPADDERHSFKFKQEQPTVWLEEKIDNYTQVVPAVKKAILPGGTQLASALHVARTITRRAERQIVQLMREEQINQDVLIFINRLSDYFFAAARYANYLEQQPDMLYRNSKDVFR
B6: moaA (Staphylococcus aureus, UniProt P69848); chain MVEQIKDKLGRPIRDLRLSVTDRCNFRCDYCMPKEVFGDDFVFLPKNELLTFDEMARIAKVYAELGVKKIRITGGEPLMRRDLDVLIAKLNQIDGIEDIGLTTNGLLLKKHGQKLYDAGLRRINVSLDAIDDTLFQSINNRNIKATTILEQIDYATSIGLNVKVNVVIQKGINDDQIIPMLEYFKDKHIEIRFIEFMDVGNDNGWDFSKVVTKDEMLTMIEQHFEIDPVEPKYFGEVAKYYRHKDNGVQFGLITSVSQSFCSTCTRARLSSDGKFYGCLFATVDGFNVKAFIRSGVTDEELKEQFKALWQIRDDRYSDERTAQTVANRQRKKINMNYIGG
B7: lpxA (Escherichia coli, UniProt P0A722); chain MIDKSAFVHPTAIVEEGASIGANAHIGPFCIVGPHVEIGEGTVLKSHVVVNGHTKIGRDNEIYQFASIGEVNQDLKYAGEPTRVEIGDRNRIRESVTIHRGTVQGGGLTKVGSDNLLMINAHIAHDCTVGNRCILANNATLAGHVSVDDFAIIGGMTAVHQFCIIGAHVMVGGCSGVAQDVPPYVIAQGNHATPFGVNIEGLKRRGFSREAITAIRNAYKLIYRSGKTLDEVKPEIAELAETYPEVKAFTDFFARSTRGLIR
B8: cyc1 (Streptomyces coelicolor, UniProt Q9K499); chain MHAFPHGTTATPTAIAVPPSLRLPVIEAAFPRQLHPYWPKLQETTRTWLLEKRLMPADKVEEYADGLCYTDLMAGYYLGAPDEVLQAIADYSAWFFVWDDRHDRDIVHGRAGAWRRLRGLLHTALDSPGDHLHHEDTLVAGFADSVRRLYAFLPATWNARFARHFHTVIEAYDREFHNRTRGIVPGVEEYLELRRLTFAHWIWTDLLEPSSGCELPDAVRKHPAYRRAALLSQEFAAWYNDLCSLPKEIAGDEVHNLGISLITHHSLTLEEAIGEVRRRVEECITEFLAVERDALRFADELADGTVRGKELSGAVRANVGNMRNWFSSVYWFHHESGRYMVDSWDDRSTPPYVNNEAAGEK
B9: PhnY E385A (Sinorhizobium meliloti, UniProt Q92UV7); chain MTNAEVTIAVRHEPMRIAGRLVDTDDRVEVRYPWNDTVVGTVPAGRAEHAREAFAIAAAYQPKLTRYERQKILLATAEALAARKEEISDVITLELGISKADSLYEVGRAFDVFTLAGQMCIRDDGEIFSCDLTPHGKARKIFTMREPLTAISAITPFNHPLNMVAHKVAPAIATNNCVVVKPTELTPMTALLLADILYEAGLPPEMLSVVTGWPADIGMEMITNPHVDLVTFTGSVPVGKLIAANAHYKRQVLELGGNDPLIILNDLSDDDLARAADLAVAGATKNSGQRCTAVKRILCQESVADRFVPLVLERAKRLRFGDPMDRSTDLGTVIHEKAAALFEERVMRAAEEGADILYHPGRSGALLPPIVVDRVPHQSDLVLEATFGPIIPIVRVPDDDDATITLSNSTAFGLSSGVCTNDYRRMQKYIAGLKVGTVNIWEVPGYRIEMSPFGGIKDSGNGYKEGVIEAMKSFTNVKTFSLPWP
B10: carbamoyl phosphate synthetase large subunit G575K (Escherichia coli, UniProt P00968); chain PKRTDIKSILILGAGPIVIGQACEFDYSGAQACKALREEGYRVILVNSNPATIMTDPEMADATYIEPIHWEVVRKIIEKERPDAVLPTMGGQTALNCALELERQGVLEEFGVTMIGATADAIDKAEDRRRFDVAMKKIGLETARSGIAHTMEEALAVAADVGFPCIIRPSFTMGGSGGGIAYNREEFEEICARGLDLSPTKELLIDESLIGWKEYEMEVVRDKNDNCIIVCSIENFDAMGIHTGDSITVAPAQTLTDKEYQIMRNASMAVLREIGVETGGSNVQFAVNPKNGRLIVIEMNPRVSRSSALASKATGFPIAKVAAKLAVGYTLDELMNDITGGRTPASFEPSIDYVVTKIPRFNFEKFAGANDRLTTQMKSVGEVMAIGRTQQESLQKALRGLEVGATGFDPKVSLDDPEALTKIRRELKDAGADRIWYIADAFRAGLSVDGVFNLTNIDRWFLVQIEELVRLEEKVAEVGITGLNADFLRQLKRKGFADARLAKLAGVREAEIRKLRDQYDLHPVYKRVDTCAAEFATDTAYMYSTYEEECEANPSTDREKIMVLGGGPNRIGQKIEFDYCCVHASLALREDGYETIMVNCNPETVSTDYDTSDRLYFEPVTLEDVLEIVRIEKPKGVIVQYGGQTPLKLARALEAAGVPVIGTSPDAIDRAEDRERFQHAVERLKLKQPANATVTAIEMAVEKAKEIGYPLVVRPSYVLGGRAMEIVYDEADLRRYFQTAVSVSNDAPVLLDHFLDDAVEVDVDAICDGEMVLIGGIMEHIEQAGVHSGDSACSLPAYTLSQEIQDVMRQQVQKLAFELQVRGLMNVQFAVKNNEVYLIEVNPRAARTVPFVSKATGVPLAKVAARVMAGKSLAEQGVTKEVIPPYYSVKEVVLPFNKFPGVDPLLGPEMRSTGEVMGVGRTFAEAFAKAQLGSNSTMKKHGRALLSVREGDKERVVDLAAKLLKQGFELDATHGTAIVLGEAGINPRLVNKVHEGRPHIQDRIKNGEYTYIINTTSGRRAIEDSRVIRRSALQYKVHYDTTLNGGFATAMALNADATEKVISVQEMHAQIK

Substance | substrate | pH | temperature | notes | together with | kcat [s⁻¹]
B1 (BaiA1) | C[C@H](CCC(=O)SCCNC(=O)CCNC(=O)[C@H](O)C(C)(C)COP(=O)(O)OP(=O)(O)OC[C@H]1O[C@@H](n2cnc3c(N)ncnc32)[C@H](O)[C@@H]1OP(=O)(O)O)[C@H]1CC[C@H]2[C@@H]3CC[C@@H]4C[C@H](O)CC[C@]4(C)[C@H]3CC[C@]12C | pH 8.7 | 37 °C | – | NAD+ | 0.733
B2 (tsaM1) | COc1cc(C(=O)O)ccc1O | – | – | apparent | NADH 1 mM | 0.03 ± 0.0117
B3 (hutH) | N[C@@H](Cc1c[nH]cn1)C(=O)O | pH 7.5 | – | KCl 100 mM | Zn | 0.15 ± 0.01
protein (Clostridioides difficile, UniProt Q18B70) | CC(=O)SCCNC(=O)CCNC(=O)[C@H](O)C(C)(C)COP(=O)(O)OP(=O)(O)OC[C@H]1O[C@@H](n2cnc3c(N)ncnc32)[C@H](O)[C@@H]1OP(=O)(O)O | pH 8 | 37 °C | – | L-Thr 10 mM, AcCoA 0-2 mM | 7.97
enzyme (Bifidobacterium adolescentis, UniProt A1A3M6) | O=[N+]([O-])c1ccc(O[C@H]2O[C@H](CO)[C@H](O)[C@H](O)[C@H]2O)cc1 | pH 5 | 40 °C | – | – | 2.43 ± 0.01
B4 (protein Y93D) | Nc1ccn([C@@H]2O[C@H](CO)[C@@H](O)[C@H]2O)c(=O)n1 | pH 7.2 | 25 °C | KCl 100 mM | ATP 100–200 µM | 1.4 ± 0.6
ADE5,7 (Cryptococcus neoformans, UniProt J9VYP5) | Nc1ncnc2c1ncn2[C@@H]1O[C@H](COP(=O)(O)OP(=O)(O)OP(=O)(O)O)[C@@H](O)[C@H]1O | pH 8 | 37 °C | apparent | – | 27.3 ± 0.4
B5 (PduO F112A) | Nc1ncnc2c1ncn2[C@@H]1O[C@H](COP(=O)(O)OP(=O)(O)OP(=O)(O)O)[C@@H](O)[C@H]1O | pH 8 | 37 °C | anoxic | cob(I)alamin | 0.0056
B6 (moaA) | C[S+](CC[C@H](N)C(=O)O)C[C@H]1O[C@@H](n2cnc3c(N)ncnc32)[C@H](O)[C@@H]1O | pH 7.6 | 25 °C | – | GTP, dithionite, MgCl2 1 mM | 0.000717 ± 6.67e-05
B7 (lpxA) | CC(=O)N[C@H]1[C@@H](OP(=O)(O)OP(=O)(O)OC[C@H]2O[C@@H](n3ccc(=O)[nH]c3=O)[C@H](O)[C@@H]2O)O[C@H](CO)[C@@H](O)[C@@H]1O | pH 8 | 25 °C | – | R-3-hydroxymyristoyl-ACP 40 µM | 3.6
B8 (cyc1) | CC(C)=CCC/C(C)=C/CC/C(C)=C/CO[P@@](=O)(O)OP(=O)(O)O | pH 6.5 | 30 °C | – | MgCl2 10 mM | 0.084 ± 0.001
Ptb (Listeria monocytogenes, UniProt Q8Y7B7) | CCC(=O)SCCNC(=O)CCNC(=O)[C@H](O)C(C)(C)COP(=O)(O)OP(=O)(O)OC[C@H]1O[C@@H](n2cnc3c(N)ncnc32)[C@H](O)[C@@H]1OP(=O)(O)O | pH 7.5 | 25 °C | apparent | – | 519 ± 25.8
IYD (Homo sapiens, UniProt Q6PHW0) | COc1cc(C[C@H](N)C(=O)O)cc(I)c1O | pH 7.4 | 25 °C | – | sodium dithionite 0.5% | 0.72 ± 0.12
enzyme (Agrobacterium fabrum, UniProt Q7CU96) | O=C(O)C(=O)C[C@@H](O)[C@H](O)C(=O)O | pH 7.9 | – | – | – | 1.6 ± 0.1
B9 (PhnY E385A) | O=CCP(=O)(O)O | pH 7.5 | 30 °C | substrate inhibition | NAD+ | 0.19 ± 0.03
B10 | Nc1ncnc2c1ncn2[C@@H]1O[C@H](COP(=O)(O)OP(=O)(O)OP(=O)(O)O)[C@@H](O)[C@H]1O | pH 7.6 | – | KCl 100 mM | glutamine 10 mM, ornithine 10 mM | 3.3 ± 0.18

Some of these lines once more:
Substance | substrate | pH | temperature | notes | together with | kcat [s⁻¹]
B3 (hutH) | N[C@@H](Cc1c[nH]cn1)C(=O)O | pH 7.5 | – | KCl 100 mM | Zn | 0.15 ± 0.01
protein (Clostridioides difficile, UniProt Q18B70) | CC(=O)SCCNC(=O)CCNC(=O)[C@H](O)C(C)(C)COP(=O)(O)OP(=O)(O)OC[C@H]1O[C@@H](n2cnc3c(N)ncnc32)[C@H](O)[C@@H]1OP(=O)(O)O | pH 8 | 37 °C | – | L-Thr 10 mM, AcCoA 0-2 mM | 7.97
